Measured values from different studies.
Each numbered part is a random draw from the data of one study; scales do not carry over between parts.

Set 1
Target: RNA binding protein fox-1 homolog 2, RRM domain, GST-SBP tag (RBFOX2, Homo sapiens, UniProt O43251-10, residues 100-194)
Technique: RNA Bind-n-Seq
Molecule type: RNA
Sample: in vitro
Concentration: 365 nM
Notes: natural RNA segment, single round, ends assumed
Baseline: no-protein control
Reading: higher = stronger binding
Shared flanks, not repeated: GGGAGUUCUACAGUCCGACGAUC … UGGAAUUCUCGGGUGCCAA
Residues (chain): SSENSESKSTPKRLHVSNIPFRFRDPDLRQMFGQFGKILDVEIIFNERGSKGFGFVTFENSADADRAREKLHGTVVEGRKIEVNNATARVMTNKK
Under “RBNS enrichment (R)”, `GAUAAAACAUUAAAAUGAAAACCAGUUUUUCAGGAUGCAUAGGUAAGGAAUGAUUGCUAUAUUAUAUAUAAUUUUUAUGUGAAGCCUGUUUGACUAAUGUGUCUGGACUA` is recorded as 1.54.
For `CGUGGCCUGCAGGUGCACCCUCCUCCUCGCCACAGUCAGUCAGUUCCCGUGACAGGAAACGACCUUGUGUUCUGAGGAGAGCGUGAAGGCUGUGCCUGCCCUGCCAGUGC`, “RBNS enrichment (R)” read 0.297.
For `AGACAAGUGUUUGUAGACUCUGAAGCCUAAUGUUACUCAUGACGUUUGCCUCAUUGCUUUGCUUAUUUAGCAAAUGCAUACAACGAGGAAAGGAGGUGGCUAGUGGUAUC`, “RBNS enrichment (R)” read 0.403.
Under “RBNS enrichment (R)”, `AUAGACCUUUCCUUCCGUACCUGAGAGCUGCAGGUACCAAGGGAUCUACCGUGCAGGGACUGGGCAAGCACAGCUUACUGCUAUAAUUGGGUAUAUAAGGCUUAAGAAUU` is recorded as 0.47.
For `GGGAGUAUUACGUGUAAACAUGCGAACACUGCUCACACGCGAGUUUUCACAGUUAUUUCUAUCCACGCCUAUGAAUCUUUGGACGGUGAGAUCUCACAGAUGUCAGAACU`, “RBNS enrichment (R)” read 0.535.
Under “RBNS enrichment (R)”, `AAAGGAGAUUCCUCAGACUCAUCCAGCCCUUGGGUGCUGACCAGCAGAGUCACUAGUGGAUGCUGAAGUUACAUGAGCUACAUGUUAAAUAUUUAAAGUCUCCAAAAUAA` is recorded as 0.43.
`GAAGAAUCUGUGAACAAAUACUUGAAAAUGGGUUCAAUGUAGACUGCCAUUAUGUGUGGUCUUCCCAUUAAAUGUGAACAUUUUAAUAUGUAUGCAUUCACCUUGCCUCU` — result for “RBNS enrichment (R)”: 0.277.
Under “RBNS enrichment (R)”, `AGUUGGAAUUCUCCCACUGCCCUAAAACUUUCCCUAGUAGUCCUUUAAACUCCCCCCUCCCUUUUUGGUAGCUGUUUUCUCCGUCCUCUCUCCACCUGCCCUCUUAUCUA` is recorded as 2.15.
`UGUGUACAUUUAAGAAAAAAACAAAAAAACGGAAAUGUCAGAAUUGUAUGGAAAUAAAACUUGUUUGAAAAUUUGGAAUAGUGCUGCUGCCAGCUUAUUUUUCUGGUACU`: “RBNS enrichment (R)” 1.24.
`GCCCAGGCACUGAAUGUCUAGGACAUGCUGUGGAUGAAGAUAAAGAUGGUGGAAUAGGUUUUAUCACAUCUCUUAUUUCUCUUUUCCCCUUACUCUCUACCAUUUCCUUU`: “RBNS enrichment (R)” 0.29.
For `CAUAUCUUUCCAUAUAUCCUAUUAUUUCUGAAUAUAUGUCCUCAAAAUCCCCAUAAAUAUCCAUCCCUUCCUAGAUGGCAUUAACUUUCAUUUUAGAUUUUAGGUGACUC`, “RBNS enrichment (R)” read 0.351.
`AAUUGUAGUGUUGGCAAGCCCAAGCCACUCGUGCUAACUGCUUUUUGUCUCGGUUGCUAUUCCAAGAACAGAAGGAGGAAGUUGGCCAAUUACAGCGUGUGUGCAUGGAU` — result for “RBNS enrichment (R)”: 0.397.

Set 2
Target: Interferon regulatory factor 5, full length, phosphomimetic (IRF5, Homo sapiens, UniProt Q13568-2, residues 1-514, S451D/S453D/S456D/S462D)
Technique: protein-binding microarray
Molecule type: double-stranded DNA, one strand shown
Sample: in vitro
Concentration: 940 nM top
Notes: 60-bp whole probe
Together with: salmon DNA 0.4 mg/ml
Baseline: random background probes
Reading: higher = stronger binding
Shared flanks, not repeated: GCCTAGCAC … GTCTTGATTCGCTTGACGCTGCTG
Under “fitted relative affinity”, `CCCTGTTTCTACTGTCTGTTTGTGCTA` is recorded as 1.87 z-score.
Under “fitted relative affinity”, `CTTTCTTTTTTTCTTTTATTGTGCTAG` is recorded as 2.39 z-score.
For `TTAGGCTTCGGTATCGGTTAGTGCTAG`, “fitted relative affinity” read 4.76 z-score.
For `TTAGGTTTCTACTATCGGTTAGTGCTA`, “fitted relative affinity” read 3.75 z-score.
`TCATATTTATGTATACAACTGTGCTAG` — result for “fitted relative affinity”: 0.272 z-score.
For `GACGGACGGCTTCTCCTGACGTGCTAG`, “fitted relative affinity” read -0.381 z-score.
`GACGATTTCAGTTTCGACACGTGCTAG` — result for “fitted relative affinity”: 5.77 z-score.
`CCAACACTCGGTTTCCAAATGTGCTAG`: “fitted relative affinity” 0.357 z-score.
`GACGATATCAGTTTCGAGGCGTGCTAG`: “fitted relative affinity” 3.9 z-score.
Under “fitted relative affinity”, `TGGGAAATTCCTCTGAGGCAGTGCTAG` is recorded as -0.548 z-score.
`GACGGTCTCCTTTTGCTGACGTGCTAG` — result for “fitted relative affinity”: 0.311 z-score.
Under “fitted relative affinity”, `GACGGTATCGGACTGGTGACGTGCTAG` is recorded as 2.56 z-score.
`CTTCTTTTGCTAATTTTTTTGTGCTAG`: “fitted relative affinity” 1.67 z-score.
For `TTAGAACTGATTTTCGATTAGTGCTAG`, “fitted relative affinity” read 0.786 z-score.
`GAAGGTATCGGACTGGGGACGTGCTAG`: “fitted relative affinity” 1.78 z-score.
For `GTGTGTTTGTGTGTGTATGTGTGCTAG`, “fitted relative affinity” read 0.825 z-score.
For `TTAGGTATTGGTCTCGGTTAGTGCTAG`, “fitted relative affinity” read 4.67 z-score.
`GACAATATCAGTTTCGAGACGTGCTAG`: “fitted relative affinity” 3.89 z-score.
Under “fitted relative affinity”, `TTTGAACTGAGTATCGATTAGTGCTAG` is recorded as 5.01 z-score.
`TTAGGTTTCCTTCTCCGTTAGTGCTAG`: “fitted relative affinity” 2.3 z-score.
`GACGATTCCCTTTTCCTGACGTGCTAG` — result for “fitted relative affinity”: 0.791 z-score.

Set 3
Target: Phosphate system positive regulatory protein PHO4, full length, GST-tagged (PHO4, Saccharomyces cerevisiae, UniProt P07270, residues 1-312)
Chain of UniProt P07270 (whole entry, looked up): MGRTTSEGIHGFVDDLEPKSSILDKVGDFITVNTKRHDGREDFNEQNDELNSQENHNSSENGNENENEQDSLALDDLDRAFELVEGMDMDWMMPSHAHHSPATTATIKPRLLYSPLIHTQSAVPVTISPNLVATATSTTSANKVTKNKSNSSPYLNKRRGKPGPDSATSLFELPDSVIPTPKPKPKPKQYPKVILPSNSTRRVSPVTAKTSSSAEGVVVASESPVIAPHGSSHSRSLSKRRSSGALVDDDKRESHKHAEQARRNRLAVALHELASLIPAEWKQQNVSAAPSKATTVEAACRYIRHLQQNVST
Technique: competition protein-binding microarray
Molecule type: double-stranded DNA, one strand shown
Sample: in vitro
Concentration: 2 µM
Notes: whole 60-bp probe, lowest competitor level
Together with: Cbf1 competitor, 0.05 µM
Reading: higher = stronger binding
Shared flanks, not repeated: … GTCTTGATTCGCTTGACGCTGCTG
With `CGGGGTTAAGTTTGTTGAGTGGGTGGCTTGCAGCAG` the fluorescence intensity was 5120 a.u.
The fluorescence intensity of `GGCCGGGGCATGTTTCACGGGAAGTTCTGTGGCAGG` is reported as 5310 a.u.
`GTCTTGTCTCATTGAACTGTGGGTGTCCCCACTTCA` has a fluorescence intensity of 4460 a.u.
`AAACTATTTTTGGCAGACGTGTTGACTGATGATGAT` gave a fluorescence intensity of 6460 a.u.
The fluorescence intensity of `GCGAAATTATAGGGTCAGGTGATATTTGCGATGTGA` is reported as 3460 a.u.
`AAAGCGGTAATTTGAGGTGTGGGTGCAGATATCTAT` has a fluorescence intensity of 6110 a.u.
The fluorescence intensity of `CGTCCTAGTGATTGCACAGTGGGTGCCATGAGGAAG` is reported as 6790 a.u.
For `CTTTCCCGATCTTGTCACACTACTTTAGCACATTTG`, the fluorescence intensity was 4980 a.u.
`AGTTGTAAGAATTTGCACGGGCCCACAAATCCGACA` has a fluorescence intensity of 7630 a.u.
For `CTTCTGTAAATTTGTTAGGTGGGTGGACGCGCCCCG`, the fluorescence intensity was 3980 a.u.
`AAAACAAGATTCTCCACCGTGATGGAAAACCTCAAA` gave a fluorescence intensity of 4780 a.u.
With `ACTTTTATCGGTTCATGTGTGACGGCTCAGCTCGTC` the fluorescence intensity was 5640 a.u.
With `CTTCTGTAAATTTGCAACGTGGGTGGACGCGCCCCG` the fluorescence intensity was 14100 a.u.
With `TGCGCAACAACTTGAAACGTGGGTGTATGTCTAGAA` the fluorescence intensity was 11700 a.u.
The fluorescence intensity of `CTTGCATTGACCGCGAACGTGTAACCACAAGCAAAG` is reported as 8580 a.u.
For `TGCGCAACAACTTTTCACGTGCGCTTATGTCTAGAA`, the fluorescence intensity was 13200 a.u.
`CTAACGAAGGTTTGTGGTGTGGGTGACAAGCCAAGT` gave a fluorescence intensity of 5020 a.u.
The fluorescence intensity of `TGAAGAACAGAGCTGCTCGTGACGGAAGAGCTCAAA` is reported as 5430 a.u.
`CAGCTGGTTCTAACTCAGCTGATGGAACCTGCTTTC` gave a fluorescence intensity of 2580 a.u.
For `CATACCCAACCTTGCTACGTGGGTGAAGATATTTGT`, the fluorescence intensity was 7930 a.u.
The fluorescence intensity of `GGGAATGTAGCGGAGCATGTGATGGAAGAGCTTCGG` is reported as 8550 a.u.
With `TATGCTTTTCTTTTGAACGTGCAAAGCGCAGAGGCA` the fluorescence intensity was 10700 a.u.
`AACGCCGTCCGTAACCATATGATTCACAATTTGATC` has a fluorescence intensity of 3800 a.u.
`TTGAGATACCTCAGTGATGTGGCACAGCGTAAGGAG` has a fluorescence intensity of 5490 a.u.
`CTTTCCCGATCTTTTCACGTGCTATTAGCACATTTG` has a fluorescence intensity of 16000 a.u.

Set 4
Target: RING finger protein unkempt homolog, zinc fingers 1-6, GST-SBP tag (UNK, Homo sapiens, UniProt Q9C0B0, residues 30-357)
Chain of UniProt Q9C0B0 (30-357, looked up): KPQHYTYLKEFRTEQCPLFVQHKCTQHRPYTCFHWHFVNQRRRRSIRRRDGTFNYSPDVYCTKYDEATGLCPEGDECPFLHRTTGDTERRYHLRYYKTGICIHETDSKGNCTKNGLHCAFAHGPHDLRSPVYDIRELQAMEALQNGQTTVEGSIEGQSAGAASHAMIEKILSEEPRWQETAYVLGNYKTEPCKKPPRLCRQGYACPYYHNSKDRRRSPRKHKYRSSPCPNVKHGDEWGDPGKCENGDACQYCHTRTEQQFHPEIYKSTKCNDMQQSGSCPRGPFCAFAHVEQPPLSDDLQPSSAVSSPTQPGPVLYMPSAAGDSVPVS
Technique: RNA Bind-n-Seq
Molecule type: RNA
Sample: in vitro
Concentration: not given
Notes: RNA with constant flanks, ends assumed
Baseline: input RNA pool
Reading: higher = stronger binding
Shared flanks, not repeated: GGGAGUUCUACAGUCCGACGAUC … CAACAGAGGAUUGAGCAUCA
`UCAGAACUCAUCUCUACUCGGUUCACAGGCGCCACUGGUAGAGCAUUUCUUUUUAACAAGGCCGUUAACUUGCAGUACAGUGAAGUUCAAGAUCGGGUCAUGCUCACUGGCCGCCACAUG` gave a bound/input enrichment of 0.153 ratio.
With `GAUUACAAACCAUAAAAUGUAUAACGUUUUGAGCAGUAUUCUGUUGGGAUGGAGAUUUUACCGGUUCAGACAAAUCUUCUAGAUCUGCUUCACCCAGCAUAUUUUCUAUUCAGUGAUAUA` the bound/input enrichment was 0.247 ratio.
`AAAGAGAAAGAUGAAAUGGUAGAGCAAGAGUUUAACCGGUUGCUAGAAGCUACAUCUUACCUCCGUCAUCAACUAGACUUCAAUGUCCUCAAUAAUAAGCCUGUGUCCCUUGGCCAGGCA` gave a bound/input enrichment of 0.192 ratio.
With `CAGCUCCAGUCUAAUACCUAUGACCUCCAAGAGAGCAACGUGAGGCUAAAGCUCACGAUCGUCCGCACAGUUGGCUUUGGGGACCAGAUCAACAAAGAGGACAGCUACAAGCCUAUCGUG` the bound/input enrichment was 0.121 ratio.
`CGCAUCUUUCAUCAGAAUGCAGUCGUGUCUAAGAGUGGGUAUUUUGUGAUAAUGUUUACUACCGAUCAUUUGUUAAUUUUGAUGCCUUCAUUUUAGCUAAUUUCAGAAUUUUUAUUAGGU` gave a bound/input enrichment of 9.62 ratio.
For `CUCACAAACAGCCAUUUGGAAAAAAAGAAGUGUGAUGAGUAUAUUCCAGGUACAACCUCCUCCGGCAUGUCUGUUUUUAACCUAAGCAACGCCAUUAUGGGCAGUGGGAUUUUGGGACUC`, the bound/input enrichment was 0.361 ratio.
`CUUGCAGAGGCUGAGAGUCCCCCCCCCACCUUUUUUUUCAUUUAGAUGUAACAAACCCCGCCGUUUAUGUUCAUCAAUUGUCUGUAUAUCUCUAUAUUUUAUCCAUGUACUCUUUUGAUG` has a bound/input enrichment of 3.3 ratio.
With `AGACCAGAAACCAUGUUGUGAUUUCUUUUUAUCUUAGAAAACAUUUCUAUUUACAAUAAACCGUUACUAUGUAAAUAAUGUACAUAUGUAUUAAUUUCUUCAGUGUUAUACAAUGUAUAU` the bound/input enrichment was 2.41 ratio.
`ACCUCUCUAGUAUGUUCUGUGACUCUGCUCAUUACAAUCCUGUGCUCUACAUUGAUCCUUGCCGCAGUUUUCAAAUAUGGCCAUUUUUCCCUAUAAGUUUUAUGUAGUUAAAUGCUUCCU` has a bound/input enrichment of 3.98 ratio.
`GCUGAGGGAAUAAAUUUAAUCAAGGUCUUUGCAAAAACAGAAGCACAGAAGGGAGCCUAUACCGAACUAACACUGCAGACUUAUCAAGAAGCACUCAGUCGCCAUUCUGCAGCUUCCUAA` has a bound/input enrichment of 0.309 ratio.
With `UAUUCAUGCAGGGGCUGCCCCACGAGCUCAGGCAAGGCCCCCGUGGGCUUUGCGUAGUUCCCGUUCUUCAAUUUGGUUACUGCGCGAGUGUGUCCUGGAAGGAAUUUGUAUGGGAUUGUG` the bound/input enrichment was 0.177 ratio.

Excerpt of the above (set 2):
For `TTAGGTTTCTACTATCGGTTAGTGCTA`, “fitted relative affinity” read 3.75 z-score.
`TCATATTTATGTATACAACTGTGCTAG` — result for “fitted relative affinity”: 0.272 z-score.
For `GACGGACGGCTTCTCCTGACGTGCTAG`, “fitted relative affinity” read -0.381 z-score.
`GACGATTTCAGTTTCGACACGTGCTAG` — result for “fitted relative affinity”: 5.77 z-score.
`CCAACACTCGGTTTCCAAATGTGCTAG`: “fitted relative affinity” 0.357 z-score.
